# Published values from different studies.
# Each numbered part is a random draw from the data of one study; scales do not carry over between parts. Substitutions count along the parent as printed.

# Block 1 — target: CCNA1, cyclin fold, Cln2 fusion (human); method: yeast growth competition, sequencing; sample: yeast; notes: weak parent motif; relative to: not given; reading: higher = stronger binding
# Starting sequence: CDC6 docking peptide (human); TLKGRRLVFDNQL
Change,normalised enrichment score
V8Q,0.0654
D10F,0.312
K3H,0.0369
F9Q,0.37
T1Q,-0.0858
G4C,0.553
R6C,0.285
D10Y,0.532
K3E,0.0306
T1H,0.128
R5M,-0.0843
T1I,0.142
F9A,0.287
Q12V,0.15
V8N,0.32
T1P,0.274
R6S,0.121
K3N,0.235
N11G,0.19
N11M,0.154
R6N,0.133
D10A,-0.184
V8P,0.0709
N11V,0.209
V8R,0.373

# Block 2 — method: DHFR PCA, deep sequencing; sample: yeast; with: (+)-ABA 0.0091 µM; relative to: wild-type fitted maximum; reading: higher = stronger binding
# Target: ABI1, truncated, D143A, DHFR fusion (Arabidopsis thaliana)
# Notes: methotrexate growth selection, single substitutions
# Starting sequence: PYL1, truncated, DHFR fusion (Arabidopsis thaliana); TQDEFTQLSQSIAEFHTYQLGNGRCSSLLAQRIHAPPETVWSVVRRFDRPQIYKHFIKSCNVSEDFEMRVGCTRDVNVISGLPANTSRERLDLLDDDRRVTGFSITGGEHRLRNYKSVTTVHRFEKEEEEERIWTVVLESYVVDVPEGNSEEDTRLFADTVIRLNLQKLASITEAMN
Change,relative binding score
A35D,0.783%
M176H,-2.9%
G148N,15.9%
P146V,30.4%
A30E,-0.0107%
V121D,1.17%
S42I,-3.35%
T39G,-0.0121%
L82M,39.1%
C25V,65.1%
R49H,0.677%
Q31M,0.33%
L29T,1.69%

# Block 3 — method: protein binding microarray; form: double-stranded DNA, one strand shown; sample: in vitro; tested at: not given; relative to: not given; reading: higher = stronger binding
# Target: Histone acetyltransferase KAT6A, winged helix 2, GST fusion (KAT6A, Homo sapiens, UniProt Q92794, residues 85-181)
# Notes: 8-mer, flanks averaged, mean of 2 arrays, mostly near background
# Residues (chain): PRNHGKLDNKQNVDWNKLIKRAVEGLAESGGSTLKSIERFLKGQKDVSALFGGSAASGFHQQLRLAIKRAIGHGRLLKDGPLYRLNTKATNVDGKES
Sequence,E-score
CTTGCCAA,-0.00128
AAGAGGAA,0.0258
ACAAGCGT,0.0445
ACAACCTG,-0.0959
GAGGCCTC,0.181
AGTATGTC,-0.156
GGAACGTA,-0.268
AAGCTACG,-0.0957
CTGAGAGC,0.0249
AATCATCT,-0.167
CACAGGCC,0.0123
AACCAGCC,0.104
ACTAAACG,-0.127
ATTTAAGG,0.0307
ACTTGTCA,-0.106
ATCCGTCG,-0.0566
GGTTCGAC,0.0698
ATCCCAAA,0.138
CTTTCCAA,0.0047
GCAACATA,-0.135
CACAGTGG,0.0982

# Block 4 — method: RNA Bind-n-Seq; form: RNA; sample: in vitro; tested at: 365 nM; relative to: no-protein control; reading: higher = stronger binding
# Target: RNA binding protein fox-1 homolog 2, RRM domain, GST-SBP tag (RBFOX2, Homo sapiens, UniProt O43251-10, residues 100-194)
# Notes: natural RNA segment, single round, ends assumed
# Shared flanks, not repeated: GGGAGUUCUACAGUCCGACGAUC … UGGAAUUCUCGGGUGCCAA
# Residues (chain): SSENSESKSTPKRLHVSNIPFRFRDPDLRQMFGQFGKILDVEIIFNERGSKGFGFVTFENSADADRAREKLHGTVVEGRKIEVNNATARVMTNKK
Sequence,RBNS enrichment (R)
GGGCACACCCAGGGCCACCUGGGUGUAGGAGAGCUCUGGUGGCCCCUCCGUAAACUCAGGAAGUGUCAGGUGAUUUCCUAGGGAGAGGUUCCCAGUCCCAGCAGGCAGAA,0.694
CUUCAGUCUCCACCAGCCUGAAGGGCCUCCUAGGGGAUCCUCAGGCGGCCCCCACCAGGGCACACCCUACUGUCCUUGUGCCUCACGCCCCCUCCUCAUCCUGCACCCCU,0.485
CAGCAGCUCAUCGACGACCACUUCCUCUUCGACAAGCCCGUGUCGCCCCUGCUGCUGGCCUCGGGCAUGGCCCGCGACUGGCCCGACGCCCGCGGUAUCUGGCACAAUGA,0.343
AUAUGCAUAUAUGAGUGUUAUAUUGCAAAAUCUUUGUUUUACUUACAUGGUUAAAGCAGCAAGAAUUCUUUUGUUGAUAUGUAAUUAUACACAUAAAAUAUAUAUAUGUA,0.374
UCUUUGAUACUCCUUGAAAAUUAAAACUAAGUACACCCUAUUGCUCUUCAGCUCCCAGAAACUUACGCUUCCUCAUUUCUCAUAGCAUUUUAACUAGUGAACAUAAGGAC,0.875
AAGCCUAGGCCAGCCAGAUACCACCAUUUGCUGCUUCAGGCUUGCCUGCCUGUUGUGAUAACCAGCUCUUAGGUAUUUCCUUUCCCUGAGGCUUUCCAUUUAACAUGGAA,0.26
GCUGAGCCAAAUGCCCAGCACUGCCCCCACCUAACUGGGCACUUGUCUAGGGCACACCACCCCCAGCUGCUCACACACAGACCACAUAUUCCUUCUGGGAAGGCCAGCAU,0.297
ACUACCUUUUUCUGUAUGCUUUCCAAAGUGUUUCCCUCAAUGUUUGAUUAAAACAUUUGCUCAUAGCCAGCCUGCCUUUCUACGAGAUAGGCAGGACCUCUGAGCGAUGU,0.437
GCAAAGAGAUAGUCUAAAUGGCCUCUCAGCUUGGUAUGUGAAAAUGAGAUCACAUACUUUUUAAAUCCAAAUACAAAAGCAUAGUCUCUGCAAGAUUUUGUUCUUUGAAU,0.312
GCAACUGGCAAGCAUCGGGUCUGAGGGACUACACAGGGCGCAGCACAAGGCGCUCAUGGGUUUCAGGGAGUGGGAGGGACUGUUUUUCUCCGUUGCUCUUCCUCCUUGUU,0.654
UUCUGUGAACAGCAUCAUAACUUCUAUCAUGGAAAGUGUACUAUAUAUAAUGUUUGUGUCAUGUAUAUGCCUAAAUUUUAAUUAUCUAUAAAUAAAACAUCUGACAUAAA,0.356
CACCUGCUUUUCAGAAAGACUAUUAUUUCCUAACCAUGAGAAGCAGACUAUAAUAUUCAUAUUUAAACAAAGCAAUUUUUUUUAUUACUAAACAAGGUUUUUAUGAAUAA,0.547

# Block 5 — method: competition protein-binding microarray; form: double-stranded DNA, one strand shown; sample: in vitro; tested at: 2 µM; with: Pho4 competitor, 0.05 µM; reading: higher = stronger binding; shared flanks, not repeated: … GTCTTGATTCGCTTGACGCTGCTG
# Target: Centromere-binding protein 1, full length, His-tagged (CBF1, Saccharomyces cerevisiae, UniProt P17106, residues 1-351)
# Chain of UniProt P17106 (whole entry, looked up): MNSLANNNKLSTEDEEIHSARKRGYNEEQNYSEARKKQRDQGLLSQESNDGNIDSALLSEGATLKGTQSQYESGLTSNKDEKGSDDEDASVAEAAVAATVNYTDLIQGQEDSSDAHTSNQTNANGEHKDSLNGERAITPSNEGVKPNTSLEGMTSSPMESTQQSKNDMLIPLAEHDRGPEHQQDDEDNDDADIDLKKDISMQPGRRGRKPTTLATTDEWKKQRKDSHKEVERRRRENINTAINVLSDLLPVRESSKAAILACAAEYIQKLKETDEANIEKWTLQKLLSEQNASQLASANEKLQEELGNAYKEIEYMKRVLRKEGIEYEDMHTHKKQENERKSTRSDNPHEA
# Notes: whole 60-bp probe, lowest competitor level
Sequence,fluorescence intensity [a.u.]
AGCTTGTTTATCTTGCACATGGCAAGGCCATCGCGG,136
CTTCTGTAAATTTTTCACGTGGTTTGACGCGCCCCG,1180
CTTCTGTAAATTTGTCACTTTACTTGACGCGCCCCG,93.5
CTTCTGTAAATTTGTCACACGACTTGACGCGCCCCG,130
CGTCCTAGCGATTGATATGTGGGTGCCATGAGGAAG,81.9
CGTCCTAGCGATTGAGCCGTGGGTGCCATGAGGAAG,68.4
ACAACCGTCTATGATGACGTGTTGACATTATCAAAC,99.5
AAAGCGGTAATTTGAAGAGTGGGTGCAGATATCTAT,65.2
TGATTGAAAACCAACAATGTGACAGTGAAAACAACA,154
CTTCTGTAAATTTGTCACTCGACTTGACGCGCCCCG,74.5
ACGTTTTGTCCAGATGTTCATCACCGAACAAACGTC,73.5
TTACTTTTTCAAAGACTCGTGCTTTCTATTGCATAA,174
AATAATTTATTTTATCATGTGACGCCGATCCGGGTG,2090
GTCTTGTCTCATTGTCACGTGTTTTTCCCCACTTCA,7230
ACTTTTATCGGTTCATGTGTGACGGCTCAGCTCGTC,77.4
ATAAGAACGCTACCAAACGTGGTAACTTGTCCGTCA,97.5
CGGGGTTAAGTTTGTTGAGTGGGTGGCTTGCAGCAG,91.5
ATCTTATTGATGTATTTCATATTATTGTTTTTTTTA,85.1
CTTTCCCGATCTTGGGATGTGGGTGTAGCACATTTG,59.2
TAACCCAGTTGTAACCAGATGGAGTCATTCTACCGG,61.7
AAAAAAAGAACTGTGTACGTGATGGCTTTGTCCCCT,95.6
CTAAACAGTCCGCCCAACGTGGTCGAGTTTGCTTTA,79.1

# Further values, each from its own experiment
Molecule,target,test,system,conditions,scale,measurement,result
"PhoQ, residues 284 288 289 292 302 303 SASVAL","PhoP, residues 12 14 15 18 19 NFCKL (Escherichia coli, UniProt P23836)","Sort-seq, measured: YFP reporter",E. coli,"PhoQ-PhoP variant library, with: 10 µM Mg2+","relative to: high Mg2+ state, higher = stronger signaling",fold induction,0.533
